{"data": "Measurements of several laboratories", "ESR1": "Estrogen receptor (ESR1, Homo sapiens, UniProt P03372)", "note": "Numbers after ± are the reported error.", "chain of UniProt P03372 (whole entry, looked up)": "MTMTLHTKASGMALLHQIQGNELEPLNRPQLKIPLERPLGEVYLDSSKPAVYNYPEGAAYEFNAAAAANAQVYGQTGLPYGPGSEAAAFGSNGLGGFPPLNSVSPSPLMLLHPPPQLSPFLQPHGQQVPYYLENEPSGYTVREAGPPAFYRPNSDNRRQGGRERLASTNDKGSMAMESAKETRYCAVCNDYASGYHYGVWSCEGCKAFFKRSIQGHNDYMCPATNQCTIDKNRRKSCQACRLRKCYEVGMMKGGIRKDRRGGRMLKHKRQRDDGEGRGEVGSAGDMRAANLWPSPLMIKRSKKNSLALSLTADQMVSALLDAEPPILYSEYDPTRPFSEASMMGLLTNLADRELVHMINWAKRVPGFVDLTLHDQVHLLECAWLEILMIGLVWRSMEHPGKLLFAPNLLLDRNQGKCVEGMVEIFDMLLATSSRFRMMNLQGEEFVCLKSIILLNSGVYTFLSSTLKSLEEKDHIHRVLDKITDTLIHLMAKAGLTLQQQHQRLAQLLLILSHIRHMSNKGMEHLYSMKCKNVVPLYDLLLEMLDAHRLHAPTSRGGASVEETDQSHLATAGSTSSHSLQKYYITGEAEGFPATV"}
{"SMILES": "CC/C(=C(\\c1ccc(O)cc1)c1ccc(OCCN(C)CCOCCOCCOCCOCCOCCOCCOCCN(C)CCOc2ccc(/C(=C(\\CC)c3ccccc3)c3ccc(O)cc3)cc2)cc1)c1ccccc1", "target": "ESR1", "assay": "competitor, radioligand competition binding", "conditions": "concentration not given, together with: [3H]estradiol", "how to read": "baseline: estradiol", "measurement": "relative binding affinity", "result": "32.3%"}
{"SMILES": "CC(C)CCSc1nc2c([nH]1)c(=S)n(C)c(=O)n2C", "target": "ESR1", "assay": "reporter gene, ERE luciferase", "test system": "T47D-KBluc", "conditions": "10 µM, 24 h, together with: estradiol 5 nM", "how to read": "baseline: maximal luciferase activity", "measurement": "reporter activity", "result": "65%"}
{"SMILES": "CCC(=C(c1ccc(Cl)cc1)c1ccc(OCCN(CC)CC)cc1)c1ccc(OC)cc1", "target": "ESR1", "assay": "reporter gene, agonist, yeast estrogen screen", "conditions": "1 µM", "how to read": "baseline: DMSO", "measurement": "β-galactosidase activity fold", "result": 3.27}
{"SMILES": "CCCC(CC)Sc1nc2c([nH]1)c(=S)n(C)c(=O)n2C (centres unmarked)", "target": "ESR1", "assay": "reporter gene, ERE luciferase", "test system": "T47D-KBluc", "conditions": "10 µM, 24 h, together with: estradiol 5 nM", "how to read": "baseline: maximal luciferase activity", "measurement": "reporter activity", "result": "72%"}
{"SMILES": "CC(=O)N[C@@H](Cc1c[nH]cn1)C(=O)N[C@@H](CCCCN)C(=O)N[C@@]1(C)C[C@@H](C)C/C=C\\CCC[C@@](C)(C(=O)N[C@@H](CC(C)C)C(=O)N[C@@H](CCC(N)=O)C(=O)N[C@@H](CC(=O)O)C(=O)N[C@@H](CO)C(N)=O)NC(=O)[C@H](CCCNC(=N)N)NC(=O)[C@H](Cc2c[nH]cn2)NC(=O)[C@H](CC(C)C)NC1=O", "target": "Estrogen receptor, ligand-binding domain; with SRC3 (ESR1, Homo sapiens, UniProt P03372)", "assay": "ERα/SRC3 interaction, inhibitor, TR-FRET", "how to read": "baseline: wild-type peptide", "measurement": "potency ratio", "result": "12 fold"}
{"SMILES": "CCC(=C(c1ccc(Cl)cc1)c1ccc(OCCCN(C)C)cc1)c1ccccc1", "target": "ESR1", "assay": "reporter gene, agonist, yeast estrogen screen", "conditions": "1 µM", "how to read": "baseline: DMSO", "measurement": "fold activation", "result": "2.2 ± 0.14 fold"}
{"SMILES": "Cc1cc([C@H](C(=O)N2C[C@H](O)C[C@H]2C(=O)N[C@@H](CC(=O)N2CCC(N3CCC(C#Cc4ccc(C(=O)N[C@H]5C(C)(C)[C@H](Oc6ccc(C#N)c(Cl)c6)C5(C)C)cc4)CC3)CC2)c2ccc(-c3scnc3C)cc2)C(C)C)on1", "target": "ESR1", "assay": "degrader, western blot", "test system": "T47D", "conditions": "0.01 to 1000 nM, 24 h", "measurement": "protein level", "result": "no effect"}
{"SMILES": "CCC(=C(c1ccc(O)cc1)c1ccc(OCCN(C)CCOCCOCCOCCOCCN(C)CCOc2ccc(C(=C(CC)c3ccccc3)c3ccc(O)cc3)cc2)cc1)c1ccccc1 (mixture of isomers)", "target": "ESR1", "assay": "competitor, radioligand competition binding", "conditions": "concentration not given, together with: [3H]estradiol", "how to read": "baseline: estradiol", "measurement": "relative binding affinity", "result": "13.6 ± 1.3%"}
{"SMILES": "Oc1ccc(-c2cc(-c3ccc(OCCN4CCCCC4)cc3)n(-c3ccc(O)cc3)n2)cc1", "target": "ESR1", "assay": "competitive radioligand binding", "conditions": "concentration not given", "how to read": "baseline: estradiol, higher = stronger binding", "measurement": "relative binding affinity", "result": "5.72 ± 0.36"}
{"SMILES": "CC(=C(c1ccc(O)cc1)c1ccc(Cl)cc1)c1ccc(Cl)cc1", "target": "ESR1", "assay": "reporter gene, agonist, yeast estrogen screen", "conditions": "1 µM", "how to read": "baseline: DMSO", "measurement": "fold activation", "result": "12.8 ± 1.9 fold"}
{"SMILES": "CCCCC(C)Sc1nc2c([nH]1)c(=S)n(C)c(=O)n2C (centres unmarked)", "target": "ESR1", "assay": "reporter gene", "test system": "T47D-KBluc", "conditions": "10 µM, together with: estradiol", "measurement": "inhibition", "result": "inactive"}
{"SMILES": "CCC(=C(c1ccc(Cl)cc1)c1ccc(OCCN2CCCCCC2)cc1)c1ccccc1", "target": "ESR1", "assay": "reporter gene, agonist, yeast estrogen screen", "conditions": "1 µM", "how to read": "baseline: DMSO", "measurement": "fold activation", "result": "2.98 ± 0.44 fold"}
{"SMILES": "Cn1c(=S)c2[nH]c(SCCCc3ccccc3)nc2n(C)c1=O", "target": "ESR1", "assay": "reporter gene, ERE luciferase", "test system": "T47D-KBluc", "conditions": "10 µM, 24 h, together with: estradiol 5 nM", "how to read": "baseline: maximal luciferase activity", "measurement": "reporter activity", "result": "37%"}
{"SMILES": "CCC(=C(c1ccc(O)cc1)c1ccc(OCCN(C)CCOCCOCCOCCOCCOCCOCCOCCOCCOCCOCCOCCN(C)CCOc2ccc(C(=C(CC)c3ccccc3)c3ccc(O)cc3)cc2)cc1)c1ccccc1 (mixture of isomers)", "target": "ESR1", "assay": "competitor, radioligand competition binding", "conditions": "concentration not given, together with: [3H]estradiol", "how to read": "baseline: estradiol", "measurement": "relative binding affinity", "result": "18 ± 5%"}
{"SMILES": "Cn1c(=O)c2[nH]c(CCc3ccccc3)nc2n(C)c1=O", "target": "ESR1", "assay": "reporter gene, ERE luciferase", "test system": "T47D-KBluc", "conditions": "10 µM, 24 h, together with: estradiol 5 nM", "how to read": "baseline: maximal luciferase activity", "measurement": "reporter activity", "result": "82%"}
{"SMILES": "CCC(=C(c1ccc(Cl)cc1)c1ccc(OCCN2CCOCC2)cc1)c1ccc(OC)cc1", "target": "ESR1", "assay": "reporter gene, agonist, yeast estrogen screen", "conditions": "1 µM", "how to read": "baseline: DMSO", "measurement": "β-galactosidase activity fold", "result": 6.46}
{"SMILES": "Oc1ccc(-c2cc(-c3ccc(OCCN4CCCCC4)cc3)n(-c3ccc(O)cc3)n2)cc1", "target": "ESR1", "assay": "competitor, radioligand binding", "conditions": "concentration not given", "how to read": "baseline: estradiol", "measurement": "relative binding affinity", "result": "5.92 ± 0.13"}
{"SMILES": "Cn1c(=O)c2[nH]c(SCCc3ccccc3)nc2n(C)c1=O", "target": "ESR1", "assay": "reporter gene, ERE luciferase", "test system": "T47D-KBluc", "conditions": "10 µM, 24 h, together with: estradiol 5 nM", "how to read": "baseline: maximal luciferase activity", "measurement": "reporter activity", "result": "87%"}
{"SMILES": "CC/C(=C(\\c1ccc(O)cc1)c1ccc(OCCN(C)CCOCCOCCOCCN(C)CCOc2ccc(/C(=C(\\CC)c3ccccc3)c3ccc(O)cc3)cc2)cc1)c1ccccc1", "target": "ESR1", "assay": "competitor, radioligand competition binding", "conditions": "concentration not given, together with: [3H]estradiol", "how to read": "baseline: estradiol", "measurement": "relative binding affinity", "result": "8.16%"}
{"SMILES": "CC(Cc1ccc(Cl)cc1)=C(c1ccc(Cl)cc1)c1ccc(OCCN2CCCC2)cc1", "target": "ESR1", "assay": "reporter gene, agonist, yeast estrogen screen", "conditions": "1 µM", "how to read": "baseline: DMSO", "measurement": "fold activation", "result": "1.05 ± 0.11 fold"}
{"SMILES": "CCC(=C(c1ccc(O)cc1)c1ccc(OCCN(C)CCOCCOCCOCCOCCOCCN(C)CCOc2ccc(C(=C(CC)c3ccccc3)c3ccc(O)cc3)cc2)cc1)c1ccccc1 (mixture of isomers)", "target": "ESR1", "assay": "ligand, radioligand competition binding", "conditions": "concentration not given, together with: [3H]estradiol tracer", "how to read": "baseline: estradiol", "measurement": "relative binding affinity", "result": "20.8 ± 5.5%"}
{"SMILES": "CCC(=C(c1ccc(Cl)cc1)c1ccc(OCCCN(C)C)cc1)c1ccc(OC)cc1", "target": "ESR1", "assay": "reporter gene, agonist, yeast estrogen screen", "conditions": "1 µM", "how to read": "baseline: DMSO", "measurement": "fold activation", "result": "3.32 ± 0.29 fold"}
{"SMILES": "CC(C)CSc1nc2c([nH]1)c(=S)n(C)c(=O)n2C", "target": "ESR1", "assay": "reporter gene, ERE luciferase", "test system": "T47D-KBluc", "conditions": "10 µM, 24 h, together with: estradiol 5 nM", "how to read": "baseline: maximal luciferase activity", "measurement": "reporter activity", "result": "93%"}
{"SMILES": "CC(=C(c1ccc(Cl)cc1)c1ccc(OCCN(C)C)cc1)c1ccc(Cl)cc1", "target": "ESR1", "assay": "reporter gene, agonist, yeast estrogen screen", "conditions": "1 µM", "how to read": "baseline: DMSO", "measurement": "fold activation", "result": "0.8 ± 0.35 fold"}
{"SMILES": "CCC(=C(c1ccc(O)cc1)c1ccc(OCCN(C)CCOCCOCCOCCOCCOC)cc1)c1ccccc1 (mixture of isomers)", "target": "ESR1", "assay": "ligand, radioligand competition binding", "conditions": "concentration not given, together with: [3H]estradiol tracer", "how to read": "baseline: estradiol", "measurement": "relative binding affinity", "result": "78.1 ± 12%"}
{"SMILES": "CCCCSc1nc2c([nH]1)c(=S)n(C)c(=S)n2C", "target": "ESR1", "assay": "reporter gene, ERE luciferase", "test system": "T47D-KBluc", "conditions": "10 µM, 24 h, together with: estradiol 5 nM", "how to read": "baseline: maximal luciferase activity", "measurement": "reporter activity", "result": "77%"}
{"note": "Some of these lines once more:"}
{"SMILES": "Cn1c(=S)c2[nH]c(SCCCc3ccccc3)nc2n(C)c1=O", "target": "ESR1", "assay": "reporter gene, ERE luciferase", "test system": "T47D-KBluc", "conditions": "10 µM, 24 h, together with: estradiol 5 nM", "how to read": "baseline: maximal luciferase activity", "measurement": "reporter activity", "result": "37%"}
{"SMILES": "CCC(=C(c1ccc(O)cc1)c1ccc(OCCN(C)CCOCCOCCOCCOCCOCCOCCOCCOCCOCCOCCOCCN(C)CCOc2ccc(C(=C(CC)c3ccccc3)c3ccc(O)cc3)cc2)cc1)c1ccccc1 (mixture of isomers)", "target": "ESR1", "assay": "competitor, radioligand competition binding", "conditions": "concentration not given, together with: [3H]estradiol", "how to read": "baseline: estradiol", "measurement": "relative binding affinity", "result": "18 ± 5%"}
{"SMILES": "Cn1c(=O)c2[nH]c(CCc3ccccc3)nc2n(C)c1=O", "target": "ESR1", "assay": "reporter gene, ERE luciferase", "test system": "T47D-KBluc", "conditions": "10 µM, 24 h, together with: estradiol 5 nM", "how to read": "baseline: maximal luciferase activity", "measurement": "reporter activity", "result": "82%"}
{"SMILES": "CCC(=C(c1ccc(Cl)cc1)c1ccc(OCCN2CCOCC2)cc1)c1ccc(OC)cc1", "target": "ESR1", "assay": "reporter gene, agonist, yeast estrogen screen", "conditions": "1 µM", "how to read": "baseline: DMSO", "measurement": "β-galactosidase activity fold", "result": 6.46}
